Experimental data of several laboratories.
Each line is one published result; not all experiments were run side by side. ± gives the spread as reported.
APP: Amyloid-beta precursor protein (APP, Homo sapiens, UniProt P05067)
Chain of UniProt P05067 (whole entry, looked up): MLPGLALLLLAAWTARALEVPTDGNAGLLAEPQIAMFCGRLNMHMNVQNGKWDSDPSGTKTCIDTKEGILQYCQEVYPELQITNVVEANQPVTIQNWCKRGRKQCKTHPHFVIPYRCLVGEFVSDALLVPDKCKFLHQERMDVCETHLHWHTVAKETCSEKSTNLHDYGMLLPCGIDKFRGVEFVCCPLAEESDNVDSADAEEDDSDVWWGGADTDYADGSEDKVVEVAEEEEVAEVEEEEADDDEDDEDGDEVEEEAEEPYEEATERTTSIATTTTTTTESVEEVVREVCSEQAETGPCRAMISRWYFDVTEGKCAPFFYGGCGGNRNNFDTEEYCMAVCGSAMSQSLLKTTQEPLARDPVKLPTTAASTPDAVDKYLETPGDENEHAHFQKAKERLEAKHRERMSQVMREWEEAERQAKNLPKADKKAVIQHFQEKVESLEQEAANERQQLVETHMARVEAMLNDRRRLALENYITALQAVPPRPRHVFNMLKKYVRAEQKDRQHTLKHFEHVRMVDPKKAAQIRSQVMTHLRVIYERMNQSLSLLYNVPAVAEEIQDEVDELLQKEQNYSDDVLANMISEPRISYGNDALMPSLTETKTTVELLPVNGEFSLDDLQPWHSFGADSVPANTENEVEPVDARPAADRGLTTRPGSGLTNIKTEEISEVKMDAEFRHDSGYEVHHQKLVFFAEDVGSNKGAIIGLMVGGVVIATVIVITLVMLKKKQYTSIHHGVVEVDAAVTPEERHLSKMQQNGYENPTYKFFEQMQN
nanA: Sialidase A (nanA, Streptococcus pneumoniae, UniProt P62575)
MAPK14: Mitogen-activated protein kinase 14 (MAPK14, Homo sapiens, UniProt Q16539)
Tripartite terminase subunit 3 C-terminal nuclease domain: Tripartite terminase subunit 3, C-terminal nuclease domain (Human betaherpesvirus 5, UniProt P16732)
Chain of UniProt P06935 (whole entry, looked up): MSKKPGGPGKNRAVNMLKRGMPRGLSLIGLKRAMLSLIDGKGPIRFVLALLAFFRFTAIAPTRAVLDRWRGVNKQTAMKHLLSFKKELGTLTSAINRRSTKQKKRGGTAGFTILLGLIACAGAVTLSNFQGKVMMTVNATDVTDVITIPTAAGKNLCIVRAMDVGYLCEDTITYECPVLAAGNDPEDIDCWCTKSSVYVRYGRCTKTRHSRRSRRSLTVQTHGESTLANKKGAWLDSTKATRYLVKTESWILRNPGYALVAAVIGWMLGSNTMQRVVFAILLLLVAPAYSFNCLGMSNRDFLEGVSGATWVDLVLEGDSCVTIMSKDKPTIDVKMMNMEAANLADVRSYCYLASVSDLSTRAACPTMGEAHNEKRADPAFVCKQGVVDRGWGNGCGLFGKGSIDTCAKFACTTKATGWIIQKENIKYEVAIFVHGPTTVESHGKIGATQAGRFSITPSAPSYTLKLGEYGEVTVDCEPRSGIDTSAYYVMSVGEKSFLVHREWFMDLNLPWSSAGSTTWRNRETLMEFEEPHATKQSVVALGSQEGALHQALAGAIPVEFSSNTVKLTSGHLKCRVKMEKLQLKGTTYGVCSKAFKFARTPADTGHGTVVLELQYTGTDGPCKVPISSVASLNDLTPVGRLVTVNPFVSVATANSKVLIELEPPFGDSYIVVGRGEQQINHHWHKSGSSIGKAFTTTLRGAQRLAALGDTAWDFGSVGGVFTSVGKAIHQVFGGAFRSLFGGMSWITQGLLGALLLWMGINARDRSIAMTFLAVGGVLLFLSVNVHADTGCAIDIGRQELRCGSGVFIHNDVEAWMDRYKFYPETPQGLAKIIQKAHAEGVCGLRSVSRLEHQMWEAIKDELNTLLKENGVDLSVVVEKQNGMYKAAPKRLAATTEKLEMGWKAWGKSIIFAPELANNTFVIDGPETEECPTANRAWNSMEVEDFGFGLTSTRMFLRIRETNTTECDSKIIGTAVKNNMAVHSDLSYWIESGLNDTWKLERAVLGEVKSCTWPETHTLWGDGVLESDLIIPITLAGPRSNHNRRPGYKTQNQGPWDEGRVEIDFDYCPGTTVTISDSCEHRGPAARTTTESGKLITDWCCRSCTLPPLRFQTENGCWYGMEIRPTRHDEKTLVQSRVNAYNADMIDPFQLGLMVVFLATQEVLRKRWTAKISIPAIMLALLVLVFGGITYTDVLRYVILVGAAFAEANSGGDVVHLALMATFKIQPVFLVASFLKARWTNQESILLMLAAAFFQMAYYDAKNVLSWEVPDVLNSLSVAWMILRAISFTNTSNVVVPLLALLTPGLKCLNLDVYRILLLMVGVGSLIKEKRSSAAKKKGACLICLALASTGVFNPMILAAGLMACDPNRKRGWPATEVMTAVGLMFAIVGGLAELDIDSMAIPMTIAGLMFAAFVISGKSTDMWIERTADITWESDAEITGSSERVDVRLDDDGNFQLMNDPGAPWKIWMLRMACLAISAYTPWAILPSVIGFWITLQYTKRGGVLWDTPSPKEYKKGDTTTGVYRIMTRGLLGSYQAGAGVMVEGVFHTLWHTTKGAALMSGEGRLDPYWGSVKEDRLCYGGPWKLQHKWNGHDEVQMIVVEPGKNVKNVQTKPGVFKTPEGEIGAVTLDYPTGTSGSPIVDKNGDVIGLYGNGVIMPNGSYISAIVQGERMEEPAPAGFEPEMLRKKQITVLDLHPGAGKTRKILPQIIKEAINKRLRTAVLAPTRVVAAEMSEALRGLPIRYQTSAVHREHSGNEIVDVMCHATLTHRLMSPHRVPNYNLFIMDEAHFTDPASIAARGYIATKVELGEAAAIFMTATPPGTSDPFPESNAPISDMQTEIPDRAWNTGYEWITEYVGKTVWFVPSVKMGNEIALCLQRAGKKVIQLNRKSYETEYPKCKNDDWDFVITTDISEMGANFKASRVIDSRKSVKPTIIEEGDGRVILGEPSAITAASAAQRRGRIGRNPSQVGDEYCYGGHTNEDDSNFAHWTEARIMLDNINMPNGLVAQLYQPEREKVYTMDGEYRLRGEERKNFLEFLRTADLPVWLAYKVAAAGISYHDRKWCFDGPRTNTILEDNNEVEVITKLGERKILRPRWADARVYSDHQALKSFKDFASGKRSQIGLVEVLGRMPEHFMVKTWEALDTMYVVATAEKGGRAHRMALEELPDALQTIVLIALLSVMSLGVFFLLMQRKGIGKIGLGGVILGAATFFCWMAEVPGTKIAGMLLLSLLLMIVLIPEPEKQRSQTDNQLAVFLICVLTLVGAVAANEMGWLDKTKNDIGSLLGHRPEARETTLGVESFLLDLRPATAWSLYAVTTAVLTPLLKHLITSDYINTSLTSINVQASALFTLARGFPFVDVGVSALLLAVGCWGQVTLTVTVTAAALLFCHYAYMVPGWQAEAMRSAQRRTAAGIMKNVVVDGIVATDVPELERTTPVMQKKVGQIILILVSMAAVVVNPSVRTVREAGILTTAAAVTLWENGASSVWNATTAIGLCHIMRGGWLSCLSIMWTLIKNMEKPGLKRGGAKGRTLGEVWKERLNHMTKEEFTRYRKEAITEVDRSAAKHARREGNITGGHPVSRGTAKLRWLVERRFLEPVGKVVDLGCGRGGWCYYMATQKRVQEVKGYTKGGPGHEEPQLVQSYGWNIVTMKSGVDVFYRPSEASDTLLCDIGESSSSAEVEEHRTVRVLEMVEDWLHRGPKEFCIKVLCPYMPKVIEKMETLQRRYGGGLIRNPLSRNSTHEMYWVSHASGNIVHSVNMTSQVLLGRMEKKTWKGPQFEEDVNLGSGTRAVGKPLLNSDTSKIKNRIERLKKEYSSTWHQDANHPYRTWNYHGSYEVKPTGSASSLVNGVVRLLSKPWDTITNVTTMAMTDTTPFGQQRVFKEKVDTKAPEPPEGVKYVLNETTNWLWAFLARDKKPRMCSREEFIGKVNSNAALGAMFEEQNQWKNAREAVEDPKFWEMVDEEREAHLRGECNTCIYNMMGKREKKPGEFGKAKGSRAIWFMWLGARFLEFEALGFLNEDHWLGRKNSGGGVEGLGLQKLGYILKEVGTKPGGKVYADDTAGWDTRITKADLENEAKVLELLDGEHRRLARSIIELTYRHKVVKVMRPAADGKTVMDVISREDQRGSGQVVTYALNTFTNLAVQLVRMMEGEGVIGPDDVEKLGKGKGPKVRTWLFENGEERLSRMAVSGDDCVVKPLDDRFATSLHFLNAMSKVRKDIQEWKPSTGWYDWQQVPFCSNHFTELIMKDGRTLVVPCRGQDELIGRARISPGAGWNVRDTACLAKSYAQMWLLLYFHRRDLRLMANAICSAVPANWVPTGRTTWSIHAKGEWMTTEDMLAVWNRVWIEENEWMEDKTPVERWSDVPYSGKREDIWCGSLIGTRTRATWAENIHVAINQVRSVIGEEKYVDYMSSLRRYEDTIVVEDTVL
Chain of UniProt P16732 (whole entry, looked up): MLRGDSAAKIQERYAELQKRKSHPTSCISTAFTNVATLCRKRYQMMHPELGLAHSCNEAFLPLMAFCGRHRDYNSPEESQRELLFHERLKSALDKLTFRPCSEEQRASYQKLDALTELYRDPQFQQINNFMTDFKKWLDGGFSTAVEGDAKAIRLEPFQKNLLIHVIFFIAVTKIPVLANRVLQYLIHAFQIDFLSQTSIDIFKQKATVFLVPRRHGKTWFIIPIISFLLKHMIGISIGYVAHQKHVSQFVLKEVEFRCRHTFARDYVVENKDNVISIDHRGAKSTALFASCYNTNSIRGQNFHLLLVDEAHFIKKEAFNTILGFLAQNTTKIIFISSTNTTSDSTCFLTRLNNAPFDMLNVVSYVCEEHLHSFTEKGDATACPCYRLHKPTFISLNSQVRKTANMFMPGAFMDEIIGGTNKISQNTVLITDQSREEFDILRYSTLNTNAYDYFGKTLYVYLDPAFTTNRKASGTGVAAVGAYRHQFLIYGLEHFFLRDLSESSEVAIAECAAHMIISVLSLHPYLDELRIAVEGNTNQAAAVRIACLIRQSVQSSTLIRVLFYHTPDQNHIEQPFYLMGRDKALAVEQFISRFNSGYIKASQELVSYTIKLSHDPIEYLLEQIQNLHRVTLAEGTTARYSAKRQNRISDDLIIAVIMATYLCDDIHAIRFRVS
Chain of UniProt Q5U3Y7 (whole entry, looked up): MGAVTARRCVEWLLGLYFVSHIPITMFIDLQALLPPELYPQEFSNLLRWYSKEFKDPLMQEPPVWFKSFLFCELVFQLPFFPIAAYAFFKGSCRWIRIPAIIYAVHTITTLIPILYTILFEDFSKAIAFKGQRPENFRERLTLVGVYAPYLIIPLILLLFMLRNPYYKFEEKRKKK

COc1cc(/C=C/C(=O)CC(=O)/C=C/c2ccc(O)c(OC)c2)ccc1O
inhibition (APP; Aβ42 self-aggregation, inhibitor, thioflavin T fluorescence; 0.01 µM): 2.3%

CN1CCN(c2cc(-c3ccncc3)c(-c3ccc4ccccc4c3)nn2)CC1
inhibition (Neurotensin receptor type 1 (NTSR1, Homo sapiens, UniProt P30989); antagonist, FLIPR; 10 µM): -8.4%

O=S(=O)(Nc1ccc2c(c1)B(O)OC2)c1ccc(Cl)cc1
inhibition (Genome polyprotein, NS2B-NS3 protease (dengue virus type 2, UniProt P29990); enzyme activity, FRET; dengue virus serotype 2; 50 µM, added: substrate 50 µM): ≤ 10%

CC(=O)N[C@H]1C/C=C/COc2ccc(cc2)C[C@@H](C(=O)N[C@@H](CCCNC(=N)N)C(=O)c2nc3ccccc3s2)NC(=O)[C@H](CC(C)C)NC1=O
inhibition (Hepatocyte growth factor activator serine protease (Homo sapiens, UniProt Q04756); inhibitor, fluorogenic; concentration not given): no inhibition

CC(=O)N[C@@H]1C(NC(=N)N)C[C@](OC2C(O)[C@H](Oc3ccc([N+](=O)[O-])cc3)OC(CO)[C@@H]2O)(C(=O)O)OC1[C@H](O)[C@H](O)CO (stereo partly drawn)
inhibition (nanA; 8 µM, pH 6): 0.2 ± 0.7%

c1ccc(C(NCCNC(c2ccccc2)c2ccccc2)c2ccccc2)cc1
inhibition (protein kinase C, rat; enzyme activity; 10 µM, Eurofins selectivity panel): 14%

N=C(N)Nc1ccc(C(=O)Nc2ccc3c(c2)B(O)OC3)cc1
inhibition (Genome polyprotein, NS2B-NS3 protease (dengue virus type 2, UniProt P29990); enzyme activity, FRET; dengue virus serotype 2; 50 µM, added: substrate 50 µM): 44 ± 7%

Nc1ncnc2c1ncn2[C@@H]1O[C@H](C[C@@H](N)CC[C@H](N)C(=O)O)[C@@H](O)[C@H]1O
inhibition (Genome polyprotein, NS5 methyltransferase domain (Zika virus, UniProt Q32ZE1); NS5 enzyme activity, inhibitor; 50 µM): 98.2%

COc1cc(Nc2ncc(F)c(Nc3ccc4c(n3)NC(=O)C(C)(C)O4)n2)cc(OC)c1OC
inhibition (Serine/threonine-protein kinase TAO3 (TAOK3, Homo sapiens, UniProt Q9H2K8); KINOMEscan; 10 µM): 66%

N#Cc1ccc(COc2cccc(C(=O)Nc3ccc4c(c3)B(O)OC4)c2)cc1
inhibition (Genome polyprotein, NS2B-NS3 protease (dengue virus type 2, UniProt P29990); enzyme activity, FRET; dengue virus serotype 2; 50 µM, added: substrate 50 µM): 16 ± 1%

COc1ccc(S(=O)(=O)Oc2ccc3c(c2)Oc2nc4c(c(N)c2C3c2cccc(OC)c2)CCCC4)cc1 (stereo not drawn)
inhibition (APP; Aβ42 self-aggregation, inhibitor, thioflavin T fluorescence; 100 µM): 81%

O=C(Nc1cnccc1Cl)N1CCN(Cc2ccc3c(c2)OC(F)(F)O3)CC1
inhibition (Tyrosine-protein kinase ZAP-70 (ZAP70, Homo sapiens, UniProt P43403); kinase activity, inhibitor; 50 µM, human, added: poly(Glu,Tyr)): 18%

OB1OCc2ccccc21
inhibition (Genome polyprotein, NS2B-NS3 protease (West Nile virus, UniProt P06935); enzyme activity, FRET; 50 µM, added: substrate 50 µM): ≤ 10%

CC(=O)N[C@H]1[C@H]([C@H](O)[C@H](O)CO)OC(O[C@H]2[C@@H](O)[C@@H](CO)O[C@@H](Oc3ccc([N+](=O)[O-])cc3)[C@@H]2O)(C(=O)O)C[C@@H]1O (stereo partly drawn)
inhibition (nanA; 8 µM, pH 6): 17.1 ± 6.1%

COCc1c(-c2cc3cc(C)cc(OC)c3s2)c2c(N)ncnn2c1CN1CCNC(=O)C1
inhibition (P2Y purinergic receptor; radioligand binding; 10 µM): 8%

Cc1ccc(S(=O)(=O)Oc2ccc3c(c2)Oc2nc4c(c(N)c2C3c2ccc(Cl)c(Cl)c2)CCCC4)cc1 (stereo not drawn)
inhibition (APP; Aβ42 self-aggregation, inhibitor, thioflavin T fluorescence; 0.01 µM): 2.7%

Nc1ccncc1
inhibition (Glutamate receptor 2 (Homo sapiens, UniProt P42262); ion current, negative allosteric modulator, automated patch clamp; HEK293; 3 µM): 12%

CC(C)CC(=O)OC[C@H]1O[C@@](C#N)(c2ccc3c(N)ncnn23)[C@H](O)[C@@H]1O
inhibition (Na+/K+-ATPase pig heart; 20 µM): -4%

Cn1cc(-c2cc(F)cc(N3CCn4c(cc5c4CCCC5)C3=O)c2CO)cc(Nc2ccc(N3CCN(C4COC4)CC3)cn2)c1=O
inhibition (MAPK14; kinase activity, inhibitor, SelectScreen; 0.1 µM, added: ATP): 19%

O=c1[nH]c2sc3c(c2c(=O)n1O)CCNC3
inhibition (Tripartite terminase subunit 3 C-terminal nuclease domain; endonuclease activity, ELISA; 20 µM, added: dsDNA): 72%

COc1ccc(N2C(=O)N(c3c(C)cccc3Cl)Cc3cnc(Nc4ccc(C5CCN(C)CC5)cc4OC)nc32)nc1
inhibition (Receptor tyrosine-protein kinase erbB-2 (ERBB2, Homo sapiens, UniProt P04626); kinase activity; 0.5 µM): 53%

CN(C(=O)n1cnc(-c2ccc[n+]([O-])c2)c1)C1CCCCC1
inhibition (Vasopressin V2 receptor (AVPR2, Homo sapiens, UniProt P30518); radioligand binding; 10 µM, added: [3H]arginine vasopressin): 14%

O=C(Nc1ccc2c(c1)B(O)OC2)c1ccc(N2CCOCC2)cc1
inhibition (Genome polyprotein, NS2B-NS3 protease (dengue virus type 2, UniProt P29990); enzyme activity, FRET; dengue virus serotype 2; 50 µM, added: substrate 50 µM): ≤ 10%

N[C@@H]1C[C@H]1c1ccccc1 (racemic)
inhibition (ERO1-like protein alpha (Homo sapiens, UniProt Q96HE7, C104A/C131A/C166A); enzyme activity, inhibitor, Amplex Red; recombinant enzyme; up to 200 µM): no inhibition

Nc1c2c(nc3c1C(c1ccc(Cl)c(Cl)c1)c1ccc(OCC(=O)c4ccccc4)cc1O3)CCCC2 (stereo not drawn)
inhibition (APP; Aβ42 self-aggregation, inhibitor, thioflavin T fluorescence; 1 µM): 44%

Cc1cccc(COc2cccc(C(=O)Nc3ccc4c(c3)B(O)OC4)c2)c1
inhibition (Genome polyprotein, NS2B-NS3 protease (West Nile virus, UniProt P06935); enzyme activity, FRET; 50 µM, added: substrate 50 µM): 18 ± 6%

CC[C@H](C)[C@H](NC(=O)[C@@H](NC(=O)[C@H](N)Cc1ccccc1)C(C)C)C(=O)N[C@@H](C)C(N)=O
inhibition (APP; amyloid-beta aggregation, thioflavin T fluorescence; 0.5 µM, 144 h, added: 2 µM amyloid-beta): 63.1%

O=C(Nc1ccc2c(c1)B(O)OC2)c1cccc(Oc2ccccc2)c1
inhibition (Genome polyprotein, NS2B-NS3 protease (dengue virus type 2, UniProt P29990); enzyme activity, FRET; dengue virus serotype 2; 50 µM, added: substrate 50 µM): 10 ± 3%

O=c1[nH]c2c(-c3ccccc3)csc2c(=O)n1O
inhibition (Tripartite terminase subunit 3 C-terminal nuclease domain; endonuclease activity, ELISA; 20 µM, added: dsDNA): 90%

C[C@H](C(=O)N[C@H]1COc2ccccc2[C@@H]1S(C)(=O)=O)c1ccc(F)cc1
inhibition (Cyclin-dependent kinase 3, with cyclin E (CDK3, Homo sapiens, UniProt Q00526); enzyme activity; 10 µM, Eurofins selectivity panel): -5%

O=C(Nc1ccc2c(c1)B(O)OC2)c1cccc(OCc2ccccc2)n1
inhibition (Genome polyprotein, NS2B-NS3 protease (West Nile virus, UniProt P06935); enzyme activity, FRET; 50 µM, added: substrate 50 µM): 24 ± 2%

Nc1c2c(nc3c1C(c1ccc(Cl)c(Cl)c1)c1ccc(OCC(=O)c4ccc(Cl)cc4)cc1O3)CCCC2 (stereo not drawn)
inhibition (APP; Aβ42 self-aggregation, inhibitor, thioflavin T fluorescence; 0.1 µM): 33%

O=C1c2ccccc2C(c2ccccc2F)C(=O)N1O (stereo not drawn)
inhibition (Tripartite terminase subunit 3 C-terminal nuclease domain; endonuclease activity, ELISA; 20 µM, added: dsDNA): 97%

Cc1ncc(C)n2nc(/C=C/c3nc(N4CCCC4)cc(N4CCOCC4)n3)nc12
inhibition (PDE6 non-selective; enzyme activity; 10 µM): 57%

O=C(Nc1cccnn1)N1CCC(=Cc2cccc(Oc3ccc(C(F)(F)F)cn3)c2)CC1
inhibition (Sigma intracellular receptor 2 (Tmem97, Rattus norvegicus, UniProt Q5U3Y7); radioligand binding, inhibitor; 10 µM, rat, added: [3H]ifenprodil): 58%

O=c1[nH]c2scc(-c3ccc(Cl)cc3)c2c(=O)n1O
inhibition (Tripartite terminase subunit 3 C-terminal nuclease domain; endonuclease activity, ELISA; 20 µM, added: dsDNA): 100%

FC(F)(F)c1cccc(Nc2nc(NCCOc3ccccc3)nc3[nH]cnc23)c1
inhibition (MAPK14; kinase activity, Z'-LYTE; 5 µM): 3%

CC(C)N1CCC[C@H]1CNC(=O)c1cn(C2CCCC2)c(=O)c2c1c1ccccc1n2C
inhibition (dopamine D4.2 receptor, human; radioligand binding; 10 µM): -2%

O=c1[nH]c2cc(-c3ccc(Cl)cc3)sc2c(=O)n1O
inhibition (Tripartite terminase subunit 3 C-terminal nuclease domain; endonuclease activity, ELISA; 20 µM, added: dsDNA): 80%

Excerpt of the above:
Nc1ccncc1
inhibition (Glutamate receptor 2 (Homo sapiens, UniProt P42262); ion current, negative allosteric modulator, automated patch clamp; HEK293; 3 µM): 12%

O=S(=O)(Nc1ccc2c(c1)B(O)OC2)c1ccc(Cl)cc1
inhibition (Genome polyprotein, NS2B-NS3 protease (dengue virus type 2, UniProt P29990); enzyme activity, FRET; dengue virus serotype 2; 50 µM, added: substrate 50 µM): ≤ 10%

Cc1cccc(COc2cccc(C(=O)Nc3ccc4c(c3)B(O)OC4)c2)c1
inhibition (Genome polyprotein, NS2B-NS3 protease (West Nile virus, UniProt P06935); enzyme activity, FRET; 50 µM, added: substrate 50 µM): 18 ± 6%
